Experimental data of several laboratories.
Every numbered part comes from another study and shows a few of its results, in no order. Several values in a cell are separate wells, animals, samples, runs or records. Positions count from the first letter of the parent shown.

Series 1
Target: RING finger protein unkempt homolog, zinc fingers 1-6, GST-SBP tag (UNK, Homo sapiens, UniProt Q9C0B0, residues 30-357)
Technique: RNA Bind-n-Seq
Form: RNA
Medium: in vitro
Concentration: not given
Notes: RNA with constant flanks, human-mouse chimeric sites, ends assumed
Relative to: input RNA pool
Direction: higher = stronger binding
Shared flanks, not repeated: GGGAGUUCUACAGUCCGACGAUC … CAACAGAGGAUUGAGCAUCA
Construct (chain): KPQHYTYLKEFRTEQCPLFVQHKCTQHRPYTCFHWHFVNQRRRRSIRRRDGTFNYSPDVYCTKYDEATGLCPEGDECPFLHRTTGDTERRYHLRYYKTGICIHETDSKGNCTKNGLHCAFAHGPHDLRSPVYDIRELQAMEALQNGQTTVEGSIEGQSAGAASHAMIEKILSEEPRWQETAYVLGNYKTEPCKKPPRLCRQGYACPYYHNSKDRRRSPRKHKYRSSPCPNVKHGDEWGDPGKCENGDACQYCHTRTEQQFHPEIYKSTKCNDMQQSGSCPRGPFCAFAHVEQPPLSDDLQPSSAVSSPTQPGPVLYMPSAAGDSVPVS
For `AAAGAGAAACUAAAGCAACUAAUAGAGAAGAGGAUUGGCAAAGAGAAUUUCAUAGAGAAACUAGGAUUUAUUAGCAAAACAUGAGUUGUAUUCCAGACGUCUCAGAAACCCCAGCCAAAC`, the bound/input enrichment was 23.5 ratio.
`GUGUCCUUUCAACUUAAUAAAUCACUGAGGCAUCUCUACUGUUCUGUGAGCAUCAGGACUGUAGCGCUGUGUCACCACAUGAGAGUUGUUAAGCAGCCUUUCUGUGGAGGGUGGGAAUGA` gave a bound/input enrichment of 0.135 ratio.
The bound/input enrichment of `GAUCAUGAACCACCAUCAGAAAUGAAGAUGAGAUUACCCAGACGAGCCAAAACAGCUGCGCUACAGAAAAGUAAACUUAACCUUGCACCAAUUUCUCAAUGAAGAUCAAGUUAAGAGAGC` is reported as 0.347 ratio.
With `UUUGUUUUUGUAACUUAUGUAAAAGGUUCCCCCCCCCACUGUCAAAAAAAUAUGCAUGUAUAGUAAUUAGGACUUCAUUCCUCCAUGUUUUCUUCCCUUAUCUUACUGUCAUUGUCCUUA` the bound/input enrichment was 2.54 ratio.
`UUUCUACUGCAGCAAACGAUGCUAAGAAUUAAGGAUCCUAAGAAGUCCCUGGAUUUUUAUACUAGAGUUCUUGGAAUGACCCUCCUGCAGAAGCUUGACUUCCCUGCUAUGAAGUUCUCG` gave a bound/input enrichment of 0.308 ratio.
`UUAAUCCCCUUUACUGCUCCCCCACUUGUCAUGCUGAUAACAAAGUCUUAUAUUCCCGUCCUAGCUUUCACUCAGAUGGCUUAUGGAGCCGGUUUCCUAGCUUUCUUGGGAGGGAUCAGA` gave a bound/input enrichment of 0.282 ratio.
`CAGUCCCCGUGUCCCAGUGCAGGACGAGAACAUGGACAACUCAAAGCGGCCCUUUCUUUGUAGUUCUUGAUUCUCGAAAUGUGCUAUUAUUGUUUGUCUUUUUUUUUUUUUUUUUAAAGA` has a bound/input enrichment of 0.689 ratio.
With `CCUCCCCCGGGCCACCCACCCCUCCCGGCUCCCCGCCGAGAUCCAGGUUUCUUCUUAUUUCAUAGCAAGCCAGAACAAUGUUCUACGCACAUUUUGUCCUCAGUAAACGAGGGCCUCUGG` the bound/input enrichment was 2.04 ratio.
With `UUUCUACUGCAGCAAACGAUGCUAAGAAUUAAGGAUCCUAAGAAGUCCCUGGAUUUUUAUACGAGGGUUCUUGGAAUGACCCUCCUGCAGAAGCUUGAUUUUCCCAUUAUGAAGUUCUCG` the bound/input enrichment was 0.0808 ratio.
The bound/input enrichment of `GUGUCCUGCUUUCAACUUAAAUCACUGCAUUUUUACUACUGUUCUGUGAGCAUCAGGACUGUAGCGCUUGCCACCACCAUGAGAGUUCAGAAGCAGCCUUUCUGUGGAGGGUGGGAAUGA` is reported as 0.173 ratio.
With `CUGUGACCACAAGAUCCUGAAGUUUGAUUCAGAUGGGUUGACUCCCUCUCCUUGCCUGAACCCCCCCCCACUGCCCCCCCAUCCCCCAGUGUCGGCUGAGAUGUUGCCUCUGCACGGUUC` the bound/input enrichment was 1.32 ratio.

Series 2
Target: Centromere-binding protein 1, full length, His-tagged (CBF1, Saccharomyces cerevisiae, UniProt P17106, residues 1-351)
UniProt P17106, sequence (whole entry, looked up): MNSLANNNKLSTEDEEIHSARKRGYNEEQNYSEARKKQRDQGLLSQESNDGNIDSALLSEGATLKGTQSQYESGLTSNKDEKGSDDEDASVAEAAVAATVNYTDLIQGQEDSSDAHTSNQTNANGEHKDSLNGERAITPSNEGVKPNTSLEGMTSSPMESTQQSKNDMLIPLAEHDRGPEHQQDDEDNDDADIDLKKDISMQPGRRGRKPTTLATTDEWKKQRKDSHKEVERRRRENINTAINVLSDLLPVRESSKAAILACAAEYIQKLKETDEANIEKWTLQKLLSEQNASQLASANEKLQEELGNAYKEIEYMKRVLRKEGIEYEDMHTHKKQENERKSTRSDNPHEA
Technique: competition protein-binding microarray
Form: double-stranded DNA, one strand shown
Medium: in vitro
Concentration: 2 µM
Notes: whole 60-bp probe, lowest competitor level
With: Pho4 competitor, 0.05 µM
Direction: higher = stronger binding
Shared flanks, not repeated: … GTCTTGATTCGCTTGACGCTGCTG
With `GGCCACGGCACAAATATGATGTAGTACTAAGATTTT` the fluorescence intensity was 73 a.u.
For `GCTTGCTGTCAGCGTCACAGTTAAAGTTCATATACA`, the fluorescence intensity was 75.3 a.u.
`AGGGCCGGTTGCCGTCACGTGCGGAAAACTATCTCC` has a fluorescence intensity of 3710 a.u.
With `AAATTACTAAGTTGTCACTAGACTTACCCCGTATGA` the fluorescence intensity was 76.5 a.u.
With `AACTATCTGAAAATTCACGTGATGGTCATTTGAGTA` the fluorescence intensity was 3390 a.u.
With `CGTCCTAGTGATTGTCACTACACTTCCATGAGGAAG` the fluorescence intensity was 87 a.u.
`TGTCATATTCATTTGCACGTTCTTTTTTTAATTTAT` has a fluorescence intensity of 210 a.u.
For `TTCAACTCACATTTGCACGATGCAAGCCAATGGAAA`, the fluorescence intensity was 80.7 a.u.
The fluorescence intensity of `TACATCTATTATATTCACGTGCAAAGCATTTTCAGC` is reported as 2180 a.u.

Series 3
Target: CCND2, cyclin fold, Cln2 fusion (human)
Technique: yeast growth competition, sequencing
Medium: yeast
Notes: strong parent motif
Relative to: not given
Direction: higher = stronger binding
Starting sequence: INSM1 docking peptide (human); PKAIRKLHFEDEV
`E12T`: “normalised enrichment score” 1.77.
For `F9Y`, “normalised enrichment score” read 0.307.
Under “normalised enrichment score”, `F9S` is recorded as 0.0832.
For `H8L`, “normalised enrichment score” read 2.88.
Under “normalised enrichment score”, `R5D` is recorded as 0.448.
Under “normalised enrichment score”, `R5C` is recorded as 0.755.
Under “normalised enrichment score”, `A3Y` is recorded as 0.174.
`K6C`: “normalised enrichment score” 1.96.
Under “normalised enrichment score”, `A3V` is recorded as 0.957.

Mixed results
The fold induction of `PhoQ, residues 284 288 289 292 302 303 TYGVAM` is reported as 5.48 and 14.2 (PhoP, residues 12 14 15 18 19 LWHCS (Escherichia coli, UniProt P23836); Sort-seq, refers to: YFP reporter; E. coli; PhoQ-PhoP variant library, with: 10 µM Mg2+; relative to: high Mg2+ state, higher = stronger signaling).
